Assay results of several laboratories.
Every numbered part comes from another study and shows a few of its results, in no order.
UniProt Q05397, sequence (whole entry, looked up): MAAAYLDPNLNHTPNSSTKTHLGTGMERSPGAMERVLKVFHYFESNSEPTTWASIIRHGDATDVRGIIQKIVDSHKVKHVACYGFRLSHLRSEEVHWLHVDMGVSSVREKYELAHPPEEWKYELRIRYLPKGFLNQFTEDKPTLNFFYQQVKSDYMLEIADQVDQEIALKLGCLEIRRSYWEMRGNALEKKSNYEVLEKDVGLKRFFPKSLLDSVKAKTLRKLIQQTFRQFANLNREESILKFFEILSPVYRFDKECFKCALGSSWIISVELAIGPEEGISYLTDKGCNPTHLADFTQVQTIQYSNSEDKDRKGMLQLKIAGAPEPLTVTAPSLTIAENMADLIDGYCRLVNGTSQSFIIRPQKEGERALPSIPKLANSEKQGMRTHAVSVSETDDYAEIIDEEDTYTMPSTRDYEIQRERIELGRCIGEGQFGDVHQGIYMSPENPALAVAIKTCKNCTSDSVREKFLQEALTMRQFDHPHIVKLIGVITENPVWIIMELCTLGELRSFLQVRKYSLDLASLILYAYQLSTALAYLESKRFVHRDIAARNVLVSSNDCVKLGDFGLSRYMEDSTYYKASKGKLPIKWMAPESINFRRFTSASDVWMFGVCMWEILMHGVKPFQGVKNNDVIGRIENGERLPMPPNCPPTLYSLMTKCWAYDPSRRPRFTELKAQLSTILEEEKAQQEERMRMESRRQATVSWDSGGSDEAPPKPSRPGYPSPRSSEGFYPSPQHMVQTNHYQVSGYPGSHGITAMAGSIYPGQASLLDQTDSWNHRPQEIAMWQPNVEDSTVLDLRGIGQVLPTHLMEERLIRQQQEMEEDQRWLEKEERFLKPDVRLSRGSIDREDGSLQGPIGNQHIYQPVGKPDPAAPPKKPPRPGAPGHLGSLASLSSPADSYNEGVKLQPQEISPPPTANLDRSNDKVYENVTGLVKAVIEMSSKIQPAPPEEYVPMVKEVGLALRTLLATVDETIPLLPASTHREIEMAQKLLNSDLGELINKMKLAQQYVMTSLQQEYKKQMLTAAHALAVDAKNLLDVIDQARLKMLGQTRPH
UniProt O95835, sequence (whole entry, looked up): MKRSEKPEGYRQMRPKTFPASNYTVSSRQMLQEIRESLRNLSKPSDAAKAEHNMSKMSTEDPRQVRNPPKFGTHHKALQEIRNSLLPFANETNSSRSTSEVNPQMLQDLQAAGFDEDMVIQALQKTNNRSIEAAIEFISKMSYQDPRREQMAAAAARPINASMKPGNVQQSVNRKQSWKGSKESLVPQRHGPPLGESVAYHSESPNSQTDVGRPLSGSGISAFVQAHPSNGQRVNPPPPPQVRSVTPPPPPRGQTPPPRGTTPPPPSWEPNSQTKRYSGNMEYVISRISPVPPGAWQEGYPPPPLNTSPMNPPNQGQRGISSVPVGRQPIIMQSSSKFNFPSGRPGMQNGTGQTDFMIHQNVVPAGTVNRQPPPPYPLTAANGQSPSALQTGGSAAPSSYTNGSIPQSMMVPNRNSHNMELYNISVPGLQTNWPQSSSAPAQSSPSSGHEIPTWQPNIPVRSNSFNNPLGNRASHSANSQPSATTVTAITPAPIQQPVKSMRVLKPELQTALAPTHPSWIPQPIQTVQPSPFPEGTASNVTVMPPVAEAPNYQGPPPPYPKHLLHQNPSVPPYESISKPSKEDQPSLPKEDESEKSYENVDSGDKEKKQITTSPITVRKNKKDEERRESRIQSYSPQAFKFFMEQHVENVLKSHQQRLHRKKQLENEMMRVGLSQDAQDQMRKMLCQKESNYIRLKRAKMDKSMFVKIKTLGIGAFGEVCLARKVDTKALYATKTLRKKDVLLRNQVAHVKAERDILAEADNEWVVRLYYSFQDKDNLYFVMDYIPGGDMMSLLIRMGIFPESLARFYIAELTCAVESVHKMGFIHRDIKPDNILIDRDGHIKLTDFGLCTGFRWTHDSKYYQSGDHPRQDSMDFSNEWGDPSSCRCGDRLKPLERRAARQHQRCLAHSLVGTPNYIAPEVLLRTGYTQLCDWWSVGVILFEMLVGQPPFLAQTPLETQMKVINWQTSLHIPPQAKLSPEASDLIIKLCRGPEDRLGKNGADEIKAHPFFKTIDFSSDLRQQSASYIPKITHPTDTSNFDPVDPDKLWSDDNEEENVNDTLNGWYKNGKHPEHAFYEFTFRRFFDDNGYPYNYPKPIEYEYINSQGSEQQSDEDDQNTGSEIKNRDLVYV
UniProt P11802, sequence (whole entry, looked up): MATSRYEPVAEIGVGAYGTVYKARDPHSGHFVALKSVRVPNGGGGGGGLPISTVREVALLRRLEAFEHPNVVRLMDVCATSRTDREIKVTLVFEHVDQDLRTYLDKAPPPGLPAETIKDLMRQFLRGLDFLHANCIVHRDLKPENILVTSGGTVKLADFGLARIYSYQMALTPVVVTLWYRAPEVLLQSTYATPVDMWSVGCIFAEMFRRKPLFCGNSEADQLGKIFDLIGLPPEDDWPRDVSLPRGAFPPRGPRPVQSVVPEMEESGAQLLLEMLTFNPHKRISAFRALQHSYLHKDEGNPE
UniProt P21127, sequence (whole entry, looked up): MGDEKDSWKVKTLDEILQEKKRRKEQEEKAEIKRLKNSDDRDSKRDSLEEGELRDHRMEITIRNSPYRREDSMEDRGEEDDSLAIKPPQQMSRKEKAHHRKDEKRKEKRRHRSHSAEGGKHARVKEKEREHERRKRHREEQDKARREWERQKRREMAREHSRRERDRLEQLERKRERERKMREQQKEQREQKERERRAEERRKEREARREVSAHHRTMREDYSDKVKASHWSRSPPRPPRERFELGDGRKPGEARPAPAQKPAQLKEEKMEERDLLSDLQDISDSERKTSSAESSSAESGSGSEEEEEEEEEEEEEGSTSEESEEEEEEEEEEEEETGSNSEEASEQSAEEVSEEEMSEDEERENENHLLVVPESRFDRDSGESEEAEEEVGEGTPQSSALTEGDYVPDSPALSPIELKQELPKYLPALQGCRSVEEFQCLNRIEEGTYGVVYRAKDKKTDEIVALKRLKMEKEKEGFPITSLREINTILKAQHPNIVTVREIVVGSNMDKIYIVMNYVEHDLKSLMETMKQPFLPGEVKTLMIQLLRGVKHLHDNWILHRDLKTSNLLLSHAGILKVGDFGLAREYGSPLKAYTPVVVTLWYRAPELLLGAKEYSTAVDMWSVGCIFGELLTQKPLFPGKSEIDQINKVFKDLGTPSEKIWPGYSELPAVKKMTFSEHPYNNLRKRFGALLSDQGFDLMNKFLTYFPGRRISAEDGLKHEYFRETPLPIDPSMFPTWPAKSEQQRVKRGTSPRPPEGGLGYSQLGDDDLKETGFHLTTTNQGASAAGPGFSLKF
UniProt Q99640, sequence (whole entry, looked up): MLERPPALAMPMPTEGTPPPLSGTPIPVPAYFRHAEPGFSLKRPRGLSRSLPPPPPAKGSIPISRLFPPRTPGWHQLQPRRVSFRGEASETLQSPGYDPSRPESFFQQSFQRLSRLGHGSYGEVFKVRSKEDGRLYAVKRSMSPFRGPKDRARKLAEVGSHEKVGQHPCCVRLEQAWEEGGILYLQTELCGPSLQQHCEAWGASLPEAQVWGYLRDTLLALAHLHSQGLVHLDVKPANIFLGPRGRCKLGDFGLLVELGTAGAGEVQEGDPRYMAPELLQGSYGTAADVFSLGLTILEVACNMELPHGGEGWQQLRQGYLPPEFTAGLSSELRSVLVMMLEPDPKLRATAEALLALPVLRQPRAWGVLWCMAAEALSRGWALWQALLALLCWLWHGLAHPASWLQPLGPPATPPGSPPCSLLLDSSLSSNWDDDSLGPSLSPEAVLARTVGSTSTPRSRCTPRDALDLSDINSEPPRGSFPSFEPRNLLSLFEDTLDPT
UniProt P11309, sequence (whole entry, looked up): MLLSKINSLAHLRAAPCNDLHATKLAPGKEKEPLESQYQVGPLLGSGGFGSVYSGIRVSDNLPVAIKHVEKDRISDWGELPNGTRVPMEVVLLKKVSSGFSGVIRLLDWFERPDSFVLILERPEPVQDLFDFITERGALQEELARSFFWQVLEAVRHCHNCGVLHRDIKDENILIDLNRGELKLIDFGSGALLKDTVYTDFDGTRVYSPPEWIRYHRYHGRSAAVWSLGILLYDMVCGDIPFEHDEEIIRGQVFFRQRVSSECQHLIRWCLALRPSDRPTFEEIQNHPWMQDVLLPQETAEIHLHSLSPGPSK

Block 1
Target: Mitogen-activated protein kinase kinase kinase 10 (MAP3K10, Homo sapiens, UniProt Q02779)
UniProt Q02779, sequence (whole entry, looked up): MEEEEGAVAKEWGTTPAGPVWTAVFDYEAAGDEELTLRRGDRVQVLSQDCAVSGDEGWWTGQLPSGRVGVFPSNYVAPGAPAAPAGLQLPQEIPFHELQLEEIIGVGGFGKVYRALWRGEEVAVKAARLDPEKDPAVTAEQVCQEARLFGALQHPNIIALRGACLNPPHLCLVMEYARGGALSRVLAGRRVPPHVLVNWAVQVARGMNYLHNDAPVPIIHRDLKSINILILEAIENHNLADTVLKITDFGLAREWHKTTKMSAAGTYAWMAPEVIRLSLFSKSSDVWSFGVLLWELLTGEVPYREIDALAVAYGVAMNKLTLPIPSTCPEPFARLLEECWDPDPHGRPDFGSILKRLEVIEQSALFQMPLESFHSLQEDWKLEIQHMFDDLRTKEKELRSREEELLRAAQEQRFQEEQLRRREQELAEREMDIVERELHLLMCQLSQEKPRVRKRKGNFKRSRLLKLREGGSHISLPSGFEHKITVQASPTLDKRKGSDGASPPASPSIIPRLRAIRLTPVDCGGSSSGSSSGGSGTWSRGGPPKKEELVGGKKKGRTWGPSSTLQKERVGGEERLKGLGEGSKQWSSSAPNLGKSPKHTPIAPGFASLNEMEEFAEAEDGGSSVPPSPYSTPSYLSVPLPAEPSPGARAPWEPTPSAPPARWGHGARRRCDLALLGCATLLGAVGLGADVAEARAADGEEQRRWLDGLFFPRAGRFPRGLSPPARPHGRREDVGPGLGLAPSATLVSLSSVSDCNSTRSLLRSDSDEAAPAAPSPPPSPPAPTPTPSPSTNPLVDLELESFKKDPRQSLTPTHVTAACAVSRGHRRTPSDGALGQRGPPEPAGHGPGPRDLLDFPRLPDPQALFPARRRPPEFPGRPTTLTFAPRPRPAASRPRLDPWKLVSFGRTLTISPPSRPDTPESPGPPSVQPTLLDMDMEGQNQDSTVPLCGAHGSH
Observed: enzyme activity
Mode: inhibitor
Tested at: 0.5 µM
Relative to: control
With Cc1cccc(-c2[nH]c(C(C)(C)C)nc2-c2ccc3c(c2)OCO3)n1 the remaining activity was 99.3%.
The remaining activity of Cc1ccc(Nc2nccc(N(C)c3ccc4c(C)n(C)nc4c3)n2)cc1S(N)(=O)=O is reported as 28.5%.
With O=C(Nc1cccc(Nc2cc(Nc3cccc(C(F)(F)F)c3)ncn2)c1)C1CC1 the remaining activity was 101%.
Nc1ncnc2n[nH]c(Nc3ccc(F)cc3)c12 has a remaining activity of 85.9%.
The remaining activity of CN(C)c1ccc(C=C2C(=O)Nc3ccccc32)cc1 is reported as 96.6%.
The remaining activity of COc1ccc(CNC(=O)Nc2ncc([N+](=O)[O-])s2)cc1 is reported as 97.9%.
COc1cc2nccc(Oc3ccc(NC(=S)NC(=O)c4ccccc4C)cc3)c2cc1OC gave a remaining activity of 91%.
The remaining activity of CC(C)[C@H](CO)Nc1nc(Nc2cc(N)cc(Cl)c2)c2ncn(C(C)C)c2n1 is reported as 95.1%.
COc1cc2ncnc(Nc3ccc(F)c(Cl)c3)c2cc1OCCCN1CCOCC1 gave a remaining activity of 109%.
Nc1ccc2ncnc(NCCc3ccc(Oc4ccccc4)cc3)c2c1 gave a remaining activity of 91.9%.
For O=C1NC(=O)C(c2cn(CCCO)c3ncccc23)=C1c1cnccn1, the remaining activity was 91.3%.
N#CC(C#N)=C(N)/C(C#N)=C/c1ccc(O)cc1 gave a remaining activity of 98%.
The remaining activity of O=S(=O)(c1cccc2cnccc12)N1CCCNCC1 is reported as 88.3%.

Block 2
SMILES: NS(=O)(=O)c1cc(NC(=O)C2(c3ccccc3Cl)CC2)ccc1Oc1cccc(Cl)c1
Tested at: 1 µM
Calcium/calmodulin-dependent protein kinase type 1B (PNCK, Homo sapiens, UniProt Q6P2M8); cell-free assay, competition with immobilised ligand — remaining binding: 100%.
Serine/threonine-protein kinase Sgk1 (SGK1, Homo sapiens, UniProt O00141); cell-free assay, competition with immobilised ligand — remaining binding: 100%.
Tyrosine-protein kinase ABL1, phosphorylated (ABL1, Homo sapiens, UniProt P00519, F317I); binding — remaining binding: 90%.
Cyclin-dependent kinase 11B (CDK11B, Homo sapiens, UniProt P21127); cell-free assay, competition with immobilised ligand — remaining binding: 83%.
Phosphatidylinositol 4,5-bisphosphate 3-kinase catalytic subunit alpha isoform (PIK3CA, Homo sapiens, UniProt P42336, E545K); cell-free assay, competition with immobilised ligand — remaining binding: 96%.
The remaining binding was 80% (Insulin-like growth factor 1 receptor (IGF1R, Homo sapiens, UniProt P08069); cell-free assay, competition with immobilised ligand).
The remaining binding was 87% (Focal adhesion kinase 1 (PTK2, Homo sapiens, UniProt Q05397); cell-free assay, competition with immobilised ligand).
Serine/threonine-protein kinase pim-1 (PIM1, Homo sapiens, UniProt P11309); cell-free assay, competition with immobilised ligand — remaining binding: 94%.
The remaining binding was 74% (Serine/threonine-protein kinase B-raf (BRAF, Homo sapiens, UniProt P15056, V600E); cell-free assay, competition with immobilised ligand).
It gave 67% for remaining binding (Vascular endothelial growth factor receptor 3 (FLT4, Homo sapiens, UniProt P35916); cell-free assay, competition with immobilised ligand).
It gave 77% for remaining binding (Cyclin-dependent kinase-like 3 (CDKL3, Homo sapiens, UniProt Q8IVW4); binding, competition with immobilised ligand).
For Phosphatidylinositol 4,5-bisphosphate 3-kinase catalytic subunit beta isoform (PIK3CB, Homo sapiens, UniProt P42338); cell-free assay, competition with immobilised ligand: remaining binding read 100%.
Mitogen-activated protein kinase kinase kinase 5 (MAP3K5, Homo sapiens, UniProt Q99683); cell-free assay, competition with immobilised ligand — remaining binding: 88%.
The remaining binding was 70% (Membrane-associated tyrosine- and threonine-specific cdc2-inhibitory kinase (PKMYT1, Homo sapiens, UniProt Q99640); cell-free assay, competition with immobilised ligand).
Cyclin-dependent kinase 4 (CDK4, Homo sapiens, UniProt P11802); cell-free assay, competition with immobilised ligand — remaining binding: 100%.
It gave 69% for remaining binding (Serine/threonine-protein kinase LATS1 (LATS1, Homo sapiens, UniProt O95835); cell-free assay, competition with immobilised ligand).
Receptor-type tyrosine-protein kinase FLT3 (FLT3, Homo sapiens, UniProt P36888, N841I); cell-free assay, competition with immobilised ligand — remaining binding: 32%.
The remaining binding was 81% (Serine/threonine-protein kinase 38-like (STK38L, Homo sapiens, UniProt Q9Y2H1); binding, competition with immobilised ligand).
For Cyclin-dependent kinase 7 (CDK7, Homo sapiens, UniProt P50613); cell-free assay, competition with immobilised ligand: remaining binding read 82%.

Block 3
Target: Fragile X messenger ribonucleoprotein 1, C-terminal low-complexity region (Fmr1, Mus musculus, UniProt P35922)
Technique: RNA Bind-n-Seq
Molecule type: RNA
Matrix: in vitro
Tested at: 200 nM
Setting: whole 134-nt RNA, ends assumed
Together with: 150 mM KCl
Relative to: input library
Reading: higher = stronger binding
Shared flanks, not repeated: GGGAGUUCUACAGUCCGACGAUC … UGGAAUUCUCGGGUGUCAAGG
`CUGUGCUACACAUCGUAUGUACCGAAUCGGGGCCCCCCGGGGCCCCCCGGGGCCCCCCGGGAAAGUAUUAUGUUACGCCGUUCGGAUCUG` gave a log2 enrichment of -1.11.
The log2 enrichment of `UGGCCCUGGUGGCAUGCGGGGAGGAAGAGGUGGCCUCAUGGAUCGUGGUCGUCCCGGUGGAAUGUUCAGAGGUGGCCGUGGUGGAGACAG` is reported as -0.00262.
`GCAGGAAGUAAAAACAAAUGGAAAUGCUUCGGAUAGUGGCAGGGGUGGGGGUUGCUAAGGAUAGGGUGGGAUGGGAGUGGGUAAAGAGUU` has a log2 enrichment of 0.136.
`UUCCCAAGAUGGCGGCGGACGUGUCCGUUACUCACCGGCCCCCGCUGAGCCCUAAGUCUGGGGCCGAAGUCGAAGCCGGCGAUGCCGCGG` gave a log2 enrichment of -2.43.
`AAGUCCUGUGCUACACAUCGUAUGUACCGAAUCGGGAAAAAAAGGGUGGGAAAGGGAAAGUAUUAUGUUACGCCGUUCGGAUCUGCACUU` has a log2 enrichment of 0.538.
With `CACAGACAACACGCACCCACACAGACACGGAGGGAAGGGGUUGGGAUGGGGACAGGGUGCACAGCAGGGCGGGGUAGGACCCCAGCCCCU` the log2 enrichment was 1.25.
`GCAGGAAGUAAAAACAAAUGGAAAUGCUUCGGAUAAAAGCAGGGGUGGGGGUUGCUAAGGAAAGGGUGGGAUGGGAGUGGGUAAAGAGUU` has a log2 enrichment of 0.362.
`UCCUGUGCUACACAUCGUAUGUACCGAAUCGGGGUGGGGUUUUUUUGGGGAAAAAGGGGAAAGUAUUAUGUUACGCCGUUCGGAUCUGCA` has a log2 enrichment of 0.792.

Further values, each from its own experiment
`ETT (Arabidopsis thaliana, UniProt O23661)` has a positive tests of 0 (ARF5 788-902 (Arabidopsis thaliana, UniProt P93024); two-hybrid; relative to: out of 4 tests, higher = firmer interaction).

Repeated from above (block 3):
`CUGUGCUACACAUCGUAUGUACCGAAUCGGGGCCCCCCGGGGCCCCCCGGGGCCCCCCGGGAAAGUAUUAUGUUACGCCGUUCGGAUCUG` gave a log2 enrichment of -1.11.
The log2 enrichment of `UGGCCCUGGUGGCAUGCGGGGAGGAAGAGGUGGCCUCAUGGAUCGUGGUCGUCCCGGUGGAAUGUUCAGAGGUGGCCGUGGUGGAGACAG` is reported as -0.00262.
`GCAGGAAGUAAAAACAAAUGGAAAUGCUUCGGAUAGUGGCAGGGGUGGGGGUUGCUAAGGAUAGGGUGGGAUGGGAGUGGGUAAAGAGUU` has a log2 enrichment of 0.136.
`UUCCCAAGAUGGCGGCGGACGUGUCCGUUACUCACCGGCCCCCGCUGAGCCCUAAGUCUGGGGCCGAAGUCGAAGCCGGCGAUGCCGCGG` gave a log2 enrichment of -2.43.
`AAGUCCUGUGCUACACAUCGUAUGUACCGAAUCGGGAAAAAAAGGGUGGGAAAGGGAAAGUAUUAUGUUACGCCGUUCGGAUCUGCACUU` has a log2 enrichment of 0.538.
With `CACAGACAACACGCACCCACACAGACACGGAGGGAAGGGGUUGGGAUGGGGACAGGGUGCACAGCAGGGCGGGGUAGGACCCCAGCCCCU` the log2 enrichment was 1.25.
`GCAGGAAGUAAAAACAAAUGGAAAUGCUUCGGAUAAAAGCAGGGGUGGGGGUUGCUAAGGAAAGGGUGGGAUGGGAGUGGGUAAAGAGUU` has a log2 enrichment of 0.362.
